Measured values from different studies.
Lines come from different studies, so protocols differ. Values joined by “and” are separate records of one study, mostly repeats; a detail may differ.
Target: Serine/threonine-protein kinase 25 (STK25, Homo sapiens, UniProt O00506)
Sequence of UniProt O00506 (whole entry, looked up): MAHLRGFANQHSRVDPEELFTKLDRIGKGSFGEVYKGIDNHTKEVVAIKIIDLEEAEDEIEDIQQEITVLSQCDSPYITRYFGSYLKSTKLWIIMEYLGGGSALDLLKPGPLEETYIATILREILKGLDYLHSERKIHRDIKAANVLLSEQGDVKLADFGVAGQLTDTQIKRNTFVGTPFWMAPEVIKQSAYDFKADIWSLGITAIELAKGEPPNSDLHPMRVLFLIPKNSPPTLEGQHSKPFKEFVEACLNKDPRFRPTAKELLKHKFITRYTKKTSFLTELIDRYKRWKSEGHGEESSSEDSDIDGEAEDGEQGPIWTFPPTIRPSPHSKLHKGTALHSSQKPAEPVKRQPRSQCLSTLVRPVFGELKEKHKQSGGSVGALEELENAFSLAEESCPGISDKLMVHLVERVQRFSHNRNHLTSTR

Structure (SMILES)	test	test system	setting	how to read	endpoint	result
CN1CC[C@@H](COc2cnc(C#N)cc2-c2ccn3nc(NC(=O)C4CC4)cc3c2)C1	enzyme activity, inhibitor		1 µM		inhibition	-3%
Cc1cccc(O[C@H]2CCC[C@@H](C(C)CNCc3ccncc3)C2)c1 (relative stereo)	enzyme activity, inhibitor		1 µM		inhibition	0%
COc1ccc(C(=O)/C=C/c2ccccc2-c2c[nH]c3ccc(C#N)cc23)c(O)c1	enzyme activity, inhibitor		20 µM		inhibition	-4%
COc1cc(Nc2nccc(-c3cnn4nc(OC)ccc34)n2)cc(C(F)(F)F)c1	binding, competition with immobilised ligand		1 µM		remaining binding	95%
CCN1CCN(Cc2ccc(NC(=O)c3ccc(C)c(NC(=O)c4cncc(-c5cnn(C)c5)c4)c3)cc2C(F)(F)F)CC1	binding, competition with immobilised ligand		1 µM		remaining binding	74%
NC(=O)[C@@H](O)C[C@H]1CCc2sc3ncnc(O[C@H]4CC[C@H](N5CCOCC5)CC4)c3c21	enzyme activity, inhibitor		10 µM		inhibition	8%
CNC(=O)C[C@H](Cc1ccc(C#N)cc1)NC(=O)c1cc(-c2ccc(CN[C@H](C)c3ccc(C)cc3)o2)ccc1Cl	enzyme activity, inhibitor		1 µM		activity vs control	104%
CN1CCN(Cc2ccc(-c3ccc(CO[C@H]4CCC[C@@H]4NC(=O)c4cc(-c5cnn(C)c5)cnc4N)cc3)cc2)CC1	enzyme activity, inhibitor		0.1 µM		inhibition	11%
Cc1ccc(-c2c(/C=C(\C#N)C(=O)NC(C)C)n(CCCO)c3ncnc(N)c23)cc1	cell-free assay, competition with immobilised ligand		1 µM		remaining binding	100%
CNC1C[S+]2CC[S+]3CC[S+](C1)[Ru-4]321([N]=C=S)[n]2c3ccc(OC)cc3c3c4c(c5cc(F)c[n+]1c5c32)C(=O)NC4=O (centres unmarked)	KinomeScan		0.1 µM	relative to: untreated	remaining binding	98%
C=CC(=O)Nc1cccc(-c2cnc3[nH]cc(C(=O)NC(C)(C)C)c3n2)c1	enzyme activity, inhibitor		0.1 µM		inhibition	10%
Cc1cnc2nc1Nc1cccc(c1)COC/C=C/COCc1cc(ccc1OCCN1CCOCC1)N2	binding, competition with immobilised ligand		0.1 µM		remaining binding	100%
N[C@H]1CC[C@H](Nc2nccc(-c3cccnc3Oc3ccc(NC(=O)NC4CC4)c4ccccc34)n2)CC1	kinobead competition pulldown	HEK293/HCT116 lysate mixture	10 µM, 1 h, 4 °C	lower = stronger competition	log2 LFQ intensity	21 and 20.4 and 21.4 and 19.9
Nc1ncc(-c2cc(-c3cnn(CC(F)(F)F)c3)ncc2F)nc1C(=O)NC1CNCC(F)C1 (centres unmarked)	enzyme activity		1 µM	relative to: DMSO control	remaining activity	99.1%

Some of these lines once more:
Structure (SMILES)	test	test system	setting	how to read	endpoint	result
NC(=O)[C@@H](O)C[C@H]1CCc2sc3ncnc(O[C@H]4CC[C@H](N5CCOCC5)CC4)c3c21	enzyme activity, inhibitor		10 µM		inhibition	8%
C=CC(=O)Nc1cccc(-c2cnc3[nH]cc(C(=O)NC(C)(C)C)c3n2)c1	enzyme activity, inhibitor		0.1 µM		inhibition	10%
